Results from different studies.
Protocols differ between the studies behind these lines. Several values in a cell are separate wells, animals, samples, runs or records. ± gives the spread as reported.

Structure (SMILES)	assay	test system	setting	tissue uptake
Cc1cc(C)n(CCN(CCN)CCCCCCNC(=O)[C@@H](N)Cc2c[nH]cn2)n1.[99Tc+].[C-]#[O+].[C-]#[O+].[C-]#[O+]		BALB/c nude mice, A549 xenograft, intestine	intravenous, 15 min	11.4 ± 1.21 %IA/g
COc1ccc2c(c1)C(C)(C)C(/C=C/C1=C(Oc3ccc(C(=O)NCCCCOc4cc(CN(Cc5ccccn5)Cc5ccccn5)cc(CN(Cc5ccccn5)Cc5ccccn5)c4)cc3)C(=C/C=C3/N(CCCCS(=O)(=O)[O-])c4ccc(OC)cc4C3(C)C)CCC1)=[N+]2CCCCS(=O)(=O)[O-].O=[N+]([O-])[O-].O=[N+]([O-])[O-].[99Tc+].[C-]#[O+].[C-]#[O+].[C-]#[O+].[Zn+2]		BALB/c mice, healthy, adipose tissue	12 h post-injection	0.18 %ID/g and 0.21 %ID/g and 0.2 %ID/g
N#C[C@@H]1CCCN1C(=O)CNC(=O)c1ccnc2ccc(OCCCN3CCN(C(=O)CCc4ccc5c(c4)CN4CCN(Cc6cc(CCC(=O)O)ccc6O)CC(=O)[O][Al-]([18F])([O]C(=O)C4)[O]5)CC3)cc12 (stereo partly drawn)		BALB/c nude mice, U-87 MG xenograft, spleen	2 h	0.47 ± 0.21 %ID/g
Cc1cc(C)n(CCN(CCN)CCCCCCNC(=O)[C@@H](N)Cc2c[nH]c3ccccc23)n1.[99Tc+].[C-]#[O+].[C-]#[O+].[C-]#[O+]		BALB/c nude mice, A549 xenograft, intestine	intravenous, 4 h	12 ± 1.96 %IA/g
COc1ccc(Nc2nc(Nc3ccc(OCCOCC[18F])cc3)ncc2Br)cc1		ICR mice, S180 tumour-bearing, liver	intravenous, 370 kBq, 15 min	3.36 ± 0.56 %ID/g
O=C(O)CCCOc1ccc([18F])cc1-c1cc(-c2ccccc2C(F)(F)F)n(-c2ccccc2)n1		mice, large intestine	intravenous, 15 min	0.46 ± 0.09 %ID/g
O=C([O-])CN1CCN(CC(=O)[O-])CCN(CC(=O)NC[C@H]2CC[C@H](C(=O)N[C@H](Cc3cnc4ccccc4c3)C(=O)NCCCC[C@H](NC(=O)N[C@@H](CCC(=O)O)C(=O)O)C(=O)O)CC2)CCN(CC(=O)[O-])CC1.[64Cu+2]	ex vivo gamma counting	22Rv1 tumour-bearing mice, stomach	intravenous, 0.74 MBq, 6 h post-injection	12.9 %ID/g
O=C(NCC1OC2CCC=CCCC2O1)c1ccc(COCCOCCOCC[18F])cc1 (stereo not drawn)		healthy female BALB/c nude mice, skin	intravenous, 7.4 MBq per mouse, 15 min	3.2 ± 0.1 %ID/g
CCCC[C@H](NC(=O)CCCCCCCNC(=O)CN1CCN(CC(=O)O)CCN(CC(=O)O)CC1)C(=O)N[C@H]1CC(=O)NCCCC[C@@H](C(N)=O)NC(=O)[C@H](Cc2c[nH]c3ccccc23)NC(=O)[C@H](CCCNC(=N)N)NC(=O)[C@@H](Cc2ccccc2)NC(=O)[C@H](Cc2c[nH]cn2)NC1=O [fluorine-18 labelled]		C57 mice B16-F10 melanoma, stomach	intravenous, 0.37 MBq, 1 h	1.61 ± 0.54 %ID/g
N#C[C@@H]1CCCN1C(=O)CNC(=O)c1ccnc2ccc(OCCCN3CCN(C(=O)CCc4ccc(O)c(CN5CCN6CC(=O)[O][Al-]([18F])([O]C(=O)C5)[O]c5ccc(CCC(=O)N7CCN(CCCOc8ccc9nccc(C(=O)NCC(=O)N%10CCC[C@H]%10C#N)c9c8)CC7)cc5C6)c4)CC3)cc12 (stereo partly drawn)		BALB/c nude mice, U-87 MG xenograft, gallbladder	1 h, blocked 60 min, together with: DOTA-FAPI-04 40 nmol co-injected	142 ± 37.6 %ID/g
CCCC[C@H](NC(=O)COCCOCCNC(=O)CN1CCN(CC(=O)O)CCN(CC(=O)O)CC1)C(=O)N[C@H]1CC(=O)NCCCC[C@@H](C(N)=O)NC(=O)[C@H](Cc2c[nH]c3ccccc23)NC(=O)[C@H](CCCNC(=N)N)NC(=O)[C@@H](Cc2ccccc2)NC(=O)[C@H](Cc2c[nH]cn2)NC1=O [fluorine-18 labelled]		C57 mice, B16/F10 melanoma, liver	intravenous, 1 h, together with: NDP-MSH 10 µg	1.14 ± 0.36 %ID/g
O=C(NCC1OC2CCC=CCCC2O1)c1ccc([18F])nc1 (stereo not drawn)		healthy female BALB/c nude mice, liver	intravenous, 7.4 MBq per mouse, 5 min	11.9 ± 4 %ID/g
COc1ccc(Nc2nc(Nc3ccc(OCCOCCOCC[18F])cc3)ncc2Br)cc1		ICR mice, S180 tumour-bearing, tumor	intravenous, 370 kBq, 60 min	2.97 ± 0.47 %ID/g
CC(C)C[C@H](NC(=O)[C@@H](CCCCNC(=O)[C@@H](Cc1ccccc1)NC(=O)CCCCCCCNC(=O)CN1CCN(CC(=O)O)CCN(CC(=O)O)CCN(CC(=O)O)CC1)NC(=O)[C@H](Cc1ccc(O)cc1)NC(=O)[C@H](CO)NC(=O)[C@H](Cc1c[nH]c2ccccc12)NC(=O)[C@H](Cc1c[nH]cn1)NC(=O)[C@@H]1CCC(=O)N1)C(=O)N[C@@H](CCCNC(=N)N)C(=O)N1CCC[C@H]1C(=O)NCC(N)=O [indium-111 labelled]	biodistribution	male athymic nude mice, DU-145 prostate cancer xenograft, liver	intravenous, 0.037 MBq, 4 h post-injection	0.31 ± 0.12 %ID/g
CCCC[C@H](NC(=O)CNC(=O)CNC(=O)[C@H](CCCCNC(=O)C(C)c1ccc(CC(C)C)cc1)NC(=O)CN1CCN(CC(=O)O)CCN(CC(=O)O)CCN(CC(=O)O)CC1)C(=O)N[C@H]1CC(=O)NCCCC[C@@H](C(N)=O)NC(=O)[C@H](Cc2c[nH]c3ccccc23)NC(=O)[C@H](CCCNC(=N)N)NC(=O)[C@@H](Cc2ccccc2)NC(=O)[C@H](Cc2c[nH]cn2)NC1=O (stereo partly drawn) [lutetium-177 labelled]		C57 mice, tumour-bearing, blood	2 h	1.27 ± 0.26 %ID/g

Repeated from above:
Structure (SMILES)	assay	test system	setting	tissue uptake
CCCC[C@H](NC(=O)CCCCCCCNC(=O)CN1CCN(CC(=O)O)CCN(CC(=O)O)CC1)C(=O)N[C@H]1CC(=O)NCCCC[C@@H](C(N)=O)NC(=O)[C@H](Cc2c[nH]c3ccccc23)NC(=O)[C@H](CCCNC(=N)N)NC(=O)[C@@H](Cc2ccccc2)NC(=O)[C@H](Cc2c[nH]cn2)NC1=O [fluorine-18 labelled]		C57 mice B16-F10 melanoma, stomach	intravenous, 0.37 MBq, 1 h	1.61 ± 0.54 %ID/g
O=C(O)CCCOc1ccc([18F])cc1-c1cc(-c2ccccc2C(F)(F)F)n(-c2ccccc2)n1		mice, large intestine	intravenous, 15 min	0.46 ± 0.09 %ID/g
